Assay results collected from several papers.
Parts stem from different laboratories: compare values within a part only.
UniProt P46098, sequence (whole entry, looked up): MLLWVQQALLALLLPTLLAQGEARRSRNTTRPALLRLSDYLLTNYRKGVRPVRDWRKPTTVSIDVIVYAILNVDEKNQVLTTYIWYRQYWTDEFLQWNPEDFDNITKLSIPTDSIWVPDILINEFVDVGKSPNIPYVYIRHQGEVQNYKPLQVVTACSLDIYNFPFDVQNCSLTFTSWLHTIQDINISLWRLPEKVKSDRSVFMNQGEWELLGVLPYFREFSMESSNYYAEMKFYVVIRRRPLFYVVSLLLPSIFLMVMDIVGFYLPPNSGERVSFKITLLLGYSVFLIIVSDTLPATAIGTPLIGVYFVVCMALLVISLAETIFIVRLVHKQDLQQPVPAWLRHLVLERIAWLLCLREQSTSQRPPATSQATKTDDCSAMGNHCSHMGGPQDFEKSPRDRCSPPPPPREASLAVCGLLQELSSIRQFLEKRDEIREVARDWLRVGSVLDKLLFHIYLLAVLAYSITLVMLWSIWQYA
UniProt P28566, sequence (whole entry, looked up): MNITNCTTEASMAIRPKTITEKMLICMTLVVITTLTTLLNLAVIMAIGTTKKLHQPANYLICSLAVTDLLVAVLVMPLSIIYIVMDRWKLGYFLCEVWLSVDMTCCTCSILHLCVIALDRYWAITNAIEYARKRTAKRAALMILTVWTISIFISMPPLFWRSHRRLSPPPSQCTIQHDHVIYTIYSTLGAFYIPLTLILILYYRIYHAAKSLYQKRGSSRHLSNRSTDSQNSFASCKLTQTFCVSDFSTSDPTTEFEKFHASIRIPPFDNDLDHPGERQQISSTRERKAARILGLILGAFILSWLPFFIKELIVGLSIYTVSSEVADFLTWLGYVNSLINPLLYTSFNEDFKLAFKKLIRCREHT
UniProt P28221, sequence (whole entry, looked up): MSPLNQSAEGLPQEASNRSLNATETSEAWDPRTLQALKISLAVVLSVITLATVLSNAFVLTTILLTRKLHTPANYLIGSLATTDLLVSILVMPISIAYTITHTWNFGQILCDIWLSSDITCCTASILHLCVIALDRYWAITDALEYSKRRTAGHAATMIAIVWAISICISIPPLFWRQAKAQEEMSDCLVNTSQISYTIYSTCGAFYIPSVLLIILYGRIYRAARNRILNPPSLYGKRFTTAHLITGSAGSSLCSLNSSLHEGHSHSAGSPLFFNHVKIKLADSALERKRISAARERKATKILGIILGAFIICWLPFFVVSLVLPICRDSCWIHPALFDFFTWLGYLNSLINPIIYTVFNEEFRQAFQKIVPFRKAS

Sample 1
Organism: Plasmodium berghei
Cells: Huh-7
Strain: liver stage
Tested at: 10 µM
Time: 24 h
Reference: control
`O=C(O)COCCN1CCN(C(c2ccccc2)c2ccc(Cl)cc2)CC1` (stereo not shown) gave a parasite load of 105%.
The parasite load of `CC(=O)O[C@H]1C[C@@H]2CC[C@@H]3[C@H](CC[C@@]4(C)[C@H]3C[C@H]([N+]3(C)CCCCC3)[C@@H]4OC(C)=O)[C@@]2(C)C[C@@H]1[N+]1(C)CCCCC1` is reported as 108%.
`COc1cc([C@@H]2c3cc4c(cc3[C@H](O)[C@H]3COC(=O)[C@H]23)OCO4)cc(OC)c1OC` has a parasite load of 96.7%.
The parasite load of `CC[C@@]1([C@H]2O[C@H]([C@H]3O[C@@](O)(CO)[C@H](C)C[C@@H]3C)C[C@H]2C)CC[C@H]([C@@]2(C)CC[C@]3(C[C@H](O)[C@@H](C)[C@@H]([C@H](C)[C@H](OC)[C@@H](C)C(=O)O)O3)O2)O1` is reported as 0.86%.
The parasite load of `CCN(CC)CC(=O)Nc1c(C)cccc1C` is reported as 77.2%.
With `CN1C[C@H](C(=O)N[C@]2(C)O[C@@]3(O)[C@@H]4CCCN4C(=O)[C@H](Cc4ccccc4)N3C2=O)C[C@@H]2c3cccc4[nH]cc(c34)C[C@H]21` the parasite load was 73.9%.
With `Nc1ccc(S(N)(=O)=O)cc1` the parasite load was 117%.
`Cn1c(=O)c2c(ncn2C)n(C)c1=O` has a parasite load of 108%.
`C[C@@H]1C[C@H]2[C@@H]3C[C@H](F)C4=CC(=O)C=C[C@]4(C)[C@@]3(F)[C@@H](O)C[C@]2(C)[C@@]1(O)C(=O)CO` gave a parasite load of 84.3%.
With `CC[N+](C)(C)Cc1ccccc1Br` the parasite load was 105%.
`O=C(CCBr)N1CCN(C(=O)CCBr)CC1` gave a parasite load of 106%.
`C1CCc2nnnn2CC1` gave a parasite load of 95.8%.

Sample 2
SMILES: O=C(Nc1ccc(-n2nc(-c3cccnc3)cc2C(F)(F)F)cn1)c1ccc(-c2ccccc2)c(F)c1
Effect on: binding
Technique: radioligand binding
Tested at: 10 µM
It gave -9.83% for inhibition (5-hydroxytryptamine receptor 1D (HTR1D, Homo sapiens, UniProt P28221)).
5-hydroxytryptamine receptor 3A (HTR3A, Homo sapiens, UniProt P46098) — inhibition: -8.89%.
The inhibition was -4.45% (5-hydroxytryptamine receptor 1E (HTR1E, Homo sapiens, UniProt P28566)).

Sample 3
Target: PAS domain-containing serine/threonine-protein kinase (PASK, Homo sapiens, UniProt Q96RG2)
UniProt Q96RG2, sequence (whole entry, looked up): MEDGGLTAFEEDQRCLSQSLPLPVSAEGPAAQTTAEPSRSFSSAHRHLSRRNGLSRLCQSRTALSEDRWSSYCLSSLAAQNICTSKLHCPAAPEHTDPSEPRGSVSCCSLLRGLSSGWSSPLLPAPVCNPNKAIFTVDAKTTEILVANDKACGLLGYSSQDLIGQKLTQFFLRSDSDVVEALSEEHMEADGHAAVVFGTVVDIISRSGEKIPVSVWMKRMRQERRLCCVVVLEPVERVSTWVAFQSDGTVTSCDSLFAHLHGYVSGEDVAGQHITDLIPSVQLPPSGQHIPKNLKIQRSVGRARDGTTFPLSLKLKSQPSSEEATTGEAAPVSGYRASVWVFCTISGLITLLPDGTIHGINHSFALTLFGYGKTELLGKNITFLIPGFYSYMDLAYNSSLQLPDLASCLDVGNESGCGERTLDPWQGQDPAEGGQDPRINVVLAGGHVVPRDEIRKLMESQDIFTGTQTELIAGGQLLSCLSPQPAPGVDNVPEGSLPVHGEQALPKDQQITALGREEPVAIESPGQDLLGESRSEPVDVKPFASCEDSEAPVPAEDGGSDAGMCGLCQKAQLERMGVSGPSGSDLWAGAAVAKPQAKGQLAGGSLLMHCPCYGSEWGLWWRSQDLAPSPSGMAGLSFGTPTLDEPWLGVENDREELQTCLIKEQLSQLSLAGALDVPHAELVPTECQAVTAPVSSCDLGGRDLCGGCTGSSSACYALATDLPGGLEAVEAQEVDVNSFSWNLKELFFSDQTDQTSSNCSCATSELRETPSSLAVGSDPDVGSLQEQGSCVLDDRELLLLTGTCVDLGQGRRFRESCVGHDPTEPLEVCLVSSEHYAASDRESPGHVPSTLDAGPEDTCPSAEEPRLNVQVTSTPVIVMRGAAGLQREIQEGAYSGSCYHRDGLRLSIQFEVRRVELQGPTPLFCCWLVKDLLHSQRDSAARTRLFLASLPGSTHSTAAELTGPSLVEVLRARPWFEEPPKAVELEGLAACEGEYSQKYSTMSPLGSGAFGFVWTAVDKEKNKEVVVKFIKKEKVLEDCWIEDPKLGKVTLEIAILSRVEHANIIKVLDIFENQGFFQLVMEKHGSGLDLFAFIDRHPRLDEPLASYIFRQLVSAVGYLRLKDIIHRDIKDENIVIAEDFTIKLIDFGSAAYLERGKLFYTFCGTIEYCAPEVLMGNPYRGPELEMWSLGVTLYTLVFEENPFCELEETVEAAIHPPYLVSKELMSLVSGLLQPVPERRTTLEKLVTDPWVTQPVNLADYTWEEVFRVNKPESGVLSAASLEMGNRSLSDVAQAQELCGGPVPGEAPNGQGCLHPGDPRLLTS
Effect on: enzyme activity
Mode: inhibitor
Tested at: 0.5 µM
Reference: control
The remaining activity of `N#Cc1cnc2cnc(NCc3cccnc3)cc2c1Nc1ccc(F)c(Cl)c1` is reported as 124%.
For `c1ccc(-c2n[nH]c3c2oc2ccccc23)cc1`, the remaining activity was 97.4%.
With `O=C1Nc2ccccc2/C1=C\c1c(Cl)[nH]c2ccccc12` the remaining activity was 89.3%.
The remaining activity of `COc1cccc(-c2cc(=O)c3ccccc3o2)c1N` is reported as 86.1%.
The remaining activity of `O=C1NC(=O)c2c1c1c3ccccc3[nH]c1c1[nH]c3cc(Br)ccc3c21` is reported as 86.3%.
With `c1ccc2c(-c3ccncc3)c[nH]c2c1` the remaining activity was 101%.
The remaining activity of `O=Nc1c(-c2c(O)[nH]c3cc(Br)ccc23)[nH]c2ccccc12` is reported as 97.9%.
With `COc1ccc2c(c1)c(C1=C(c3c[nH]c4ccccc34)C(=O)NC1=O)cn2CCCN(C)C` the remaining activity was 83.8%.
For `CN1CCN(c2ccc3nc(-c4c(N)c5c(F)cccc5[nH]c4=O)[nH]c3c2)CC1`, the remaining activity was 105%.
`CCCNC(=O)Nc1ccc(Oc2ncnc3cc(OC)c(OC)cc23)cc1Cl` has a remaining activity of 87.7%.
For `O=C1NC(=O)c2c1c1c3ccccc3[nH]c1n1cncc21`, the remaining activity was 33.6%.
With `Oc1cccc(-c2nc(N3CCOCC3)c3oc4ncccc4c3n2)c1` the remaining activity was 83.8%.
For `Cc1ccc(S(=O)(=O)/C=C/C#N)cc1`, the remaining activity was 99.3%.
With `O=C(c1cc2cc(O)ccc2[nH]1)c1cc2cc(O)ccc2[nH]1` the remaining activity was 78.7%.
For `O=C1Cc2c([nH]c3ccc(Br)cc23)-c2ccccc2N1`, the remaining activity was 98%.
With `Cc1cc(Nc2cc(N3CCN(C)CC3)nc(Sc3ccc(NC(=O)C4CC4)cc3)n2)[nH]n1` the remaining activity was 99.2%.
For `O=C1Nc2ccc(Br)cc2/C1=C/c1cc2c([nH]1)CCCC2`, the remaining activity was 98.9%.
For `CN(C)S(=O)(=O)c1ccc2c(c1)/C(=C/c1cc3c([nH]1)CCCC3)C(=O)N2`, the remaining activity was 95.6%.
With `O=c1cc(N2CCOCC2)oc2c(-c3ccccc3)cccc12` the remaining activity was 90.2%.

Sample 4
Cell line: HaCaT
Tested at: 100 µM
Time: 36 h
`C=CCc1cc(OC)c(O)c(C(=O)NCCO)c1` gave a viability of 98.4%.
`Cc1cc2nc3c(=O)[nH]c(=O)nc-3n(C[C@H](O)[C@H](O)[C@H](O)CO)c2cc1C` gave a viability of 95.7%.
The viability of `COCCOC(=O)C1=C(C)NC(C)=C(C(=O)OC(C)C)C1c1cccc([N+](=O)[O-])c1` (stereo not shown) is reported as 6.26%.
`CCN(CC)C(=O)/C(C#N)=C/c1cc(O)c(O)c([N+](=O)[O-])c1` has a viability of 45.6%.
With `CC#CCn1c(N2CCC[C@@H](N)C2)nc2c1c(=O)n(Cc1nc(C)c3ccccc3n1)c(=O)n2C` the viability was 25.7%.
`C#C[C@]1(OC(C)=O)CC[C@H]2[C@@H]3CCC4=C[C@@H](OC(C)=O)CC[C@@H]4[C@H]3CC[C@@]21C` has a viability of 8.1%.
The viability of `NNc1nncc2ccccc12` is reported as 60.4%.
The viability of `Nc1nc2c(c(=O)[nH]1)N(C=O)C(CNc1ccc(C(=O)N[C@@H](CCC(=O)O)C(=O)O)cc1)CN2` (stereo partly shown) is reported as 90.5%.
With `Fc1ccc([C@@H]2CCNC[C@H]2COc2ccc3c(c2)OCO3)cc1` the viability was 5.62%.
With `O=C(N[C@H](CO)[C@H](O)c1ccc([N+](=O)[O-])cc1)C(Cl)Cl` the viability was 114%.
For `CC(C)(C)c1ccc(C(O)CCCN2CCC(C(O)(c3ccccc3)c3ccccc3)CC2)cc1` (stereo not shown), the viability was 12.9%.
With `Cc1c(Nc2ncccc2C(=O)O)cccc1C(F)(F)F` the viability was 67.2%.

Excerpt of the above (sample 4):
The viability of `COCCOC(=O)C1=C(C)NC(C)=C(C(=O)OC(C)C)C1c1cccc([N+](=O)[O-])c1` (stereo not shown) is reported as 6.26%.
`CCN(CC)C(=O)/C(C#N)=C/c1cc(O)c(O)c([N+](=O)[O-])c1` has a viability of 45.6%.
With `CC#CCn1c(N2CCC[C@@H](N)C2)nc2c1c(=O)n(Cc1nc(C)c3ccccc3n1)c(=O)n2C` the viability was 25.7%.
`C#C[C@]1(OC(C)=O)CC[C@H]2[C@@H]3CCC4=C[C@@H](OC(C)=O)CC[C@@H]4[C@H]3CC[C@@]21C` has a viability of 8.1%.
The viability of `NNc1nncc2ccccc12` is reported as 60.4%.
The viability of `Nc1nc2c(c(=O)[nH]1)N(C=O)C(CNc1ccc(C(=O)N[C@@H](CCC(=O)O)C(=O)O)cc1)CN2` (stereo partly shown) is reported as 90.5%.
